Measured values of several laboratories.
Each line is one published result; not all experiments were run side by side. Values joined by “and” are separate records of one study, mostly repeats; a detail may differ.
Target: BMP-2-inducible protein kinase (BMP2K, Homo sapiens, UniProt Q9NSY1)

| Structure (SMILES) | test | test system | conditions | scale | measurement | value |
| --- | --- | --- | --- | --- | --- | --- |
| C=CC(=O)N1CCCC(n2c(=O)c3ncccc3n(Cc3ccc(Oc4ccccc4)cc3)c2=O)C1 (centres unmarked) | cell-free assay, competition with immobilised ligand | – | 1 µM | – | remaining binding | 90% |
| Cc1cnc2nc1Nc1cccc(c1)COC/C=C/COCc1cc(ccc1OCCN1CCOCC1)N2 | binding, competition with immobilised ligand | – | 0.1 µM | – | remaining binding | 85% |
| CCn1cc(C(=O)O)c(=O)c2c(N)c(F)c(NC3CCCCC3)cc21 | kinase activity | – | 0.1 µM, together with: ATP at Km | – | inhibition | -0.3% |
| CC(C)=CC1OC(C)(C)C2C=C3C(=O)C(Cl)=CC(O)C3C3C(O)C4OC4C(=O)C132 (centres unmarked) | cell-free assay, competition with immobilised ligand | – | 10 µM | – | remaining binding | 86% |
| CNC1C[S+]2CC[S+]3CC[S+](C1)[Ru-4]321([N]=C=S)[n]2c3ccc(OC)cc3c3c4c(c5cc(F)c[n+]1c5c32)C(=O)NC4=O (centres unmarked) | KinomeScan | – | 0.1 µM | baseline: untreated | remaining binding | 100% |
| CNC(=O)C1CCN(c2cc(C)c(F)cc2NC(=O)c2ccc(-c3cc(O)ccc3C)c(C)c2)CC1 | binding, competition with immobilised ligand | – | 1 µM | – | remaining binding | 100% |
| COc1c(Cl)cccc1Nc1c(-c2ccncc2C#C[C@@]2(C)CCCN2C(=O)/C=C/CN(C)C)[nH]c2c1C(=O)NCC2 | binding, competition with immobilised ligand | – | 3 µM | – | remaining binding | 88% |
| COc1cc(Nc2nccc(-c3cnn4nc(OC)ccc34)n2)cc(C(F)(F)F)c1 | binding, competition with immobilised ligand | – | 1 µM | – | remaining binding | 92% |
| C[C@]1(O)CCCN(c2nc(Nc3ccc(S(=O)(=O)N[C@H]4CC[C@H](CN5CCN(c6ccc(C7CCC(=O)NC7=O)cc6F)CC5)CC4)cc3)ncc2C(F)(F)F)C1 (some centres unmarked) | binding, competition with immobilised ligand | – | 1 µM | – | remaining binding | 0.3% |
| Nc1ncc2c(n1)-c1c([nH]c3ccc(C4=CCOCC4)cc13)CCC2 | binding, competition with immobilised ligand | – | 1 µM | – | remaining binding | 100% |
| C=CC(=O)N1CCc2ccc(-n3c(=O)ccc4cnc5ccc(-c6cnn(C)c6)cc5c43)cc21 | KINOMEscan | – | 1 µM | baseline: DMSO control | remaining binding | 84% |
| Cc1c[nH]c2nccc(-c3ccc(C(=O)N[C@@H]4c5c(F)cc(C(F)F)cc5C[C@@H]4O)cn3)c12 | binding, competition with immobilised ligand | – | 3 µM | – | remaining binding | 12% |
| O=C(Cc1ccc(OCc2ccccc2)cc1)NC1(C(=O)O)CCN(C(=O)c2ccc(-c3cccc(Cl)c3)cc2)CC1 | enzyme activity, inhibitor | – | 10 µM | – | activity vs control | 94% |
| N[C@H]1CC[C@H](Nc2nccc(-c3cccnc3Oc3ccc(NC(=O)NC4CC4)c4ccccc34)n2)CC1 | kinobead competition pulldown | HEK293/HCT116 lysate mixture | 10 µM, 1 h, 4 °C | lower = stronger competition | log2 LFQ intensity | 27.3 and 27.5 |
| CCN1CCN(Cc2ccc(C(=O)Nc3ccc(C)c(NCc4cnc5[nH]ccc5c4OC)c3)cc2C(F)(F)F)CC1 | binding, competition with immobilised ligand | – | 1 µM | – | remaining binding | 88% |
| COc1cc(Nc2nc(C)cc(-c3cnn4nc(OC)ccc34)n2)cc(C(F)(F)F)c1 | KINOMEscan | – | 1 µM, BIKE | baseline: DMSO | remaining binding | 86% |
| Cc1ccc(-c2c(/C=C(\C#N)C(=O)NC(C)C)n(CCCO)c3ncnc(N)c23)cc1 | cell-free assay, competition with immobilised ligand | – | 1 µM | – | remaining binding | 73% |

Some of these lines once more:
| Structure (SMILES) | test | test system | conditions | scale | measurement | value |
| --- | --- | --- | --- | --- | --- | --- |
| Cc1c[nH]c2nccc(-c3ccc(C(=O)N[C@@H]4c5c(F)cc(C(F)F)cc5C[C@@H]4O)cn3)c12 | binding, competition with immobilised ligand | – | 3 µM | – | remaining binding | 12% |
